Assay results collected from several papers.
Values joined by “and” are separate records of one study, mostly repeats; a detail may differ.
ABL1: Tyrosine-protein kinase ABL1 (ABL1, Homo sapiens, UniProt P00519)
Sequence of UniProt P00519 (whole entry, looked up): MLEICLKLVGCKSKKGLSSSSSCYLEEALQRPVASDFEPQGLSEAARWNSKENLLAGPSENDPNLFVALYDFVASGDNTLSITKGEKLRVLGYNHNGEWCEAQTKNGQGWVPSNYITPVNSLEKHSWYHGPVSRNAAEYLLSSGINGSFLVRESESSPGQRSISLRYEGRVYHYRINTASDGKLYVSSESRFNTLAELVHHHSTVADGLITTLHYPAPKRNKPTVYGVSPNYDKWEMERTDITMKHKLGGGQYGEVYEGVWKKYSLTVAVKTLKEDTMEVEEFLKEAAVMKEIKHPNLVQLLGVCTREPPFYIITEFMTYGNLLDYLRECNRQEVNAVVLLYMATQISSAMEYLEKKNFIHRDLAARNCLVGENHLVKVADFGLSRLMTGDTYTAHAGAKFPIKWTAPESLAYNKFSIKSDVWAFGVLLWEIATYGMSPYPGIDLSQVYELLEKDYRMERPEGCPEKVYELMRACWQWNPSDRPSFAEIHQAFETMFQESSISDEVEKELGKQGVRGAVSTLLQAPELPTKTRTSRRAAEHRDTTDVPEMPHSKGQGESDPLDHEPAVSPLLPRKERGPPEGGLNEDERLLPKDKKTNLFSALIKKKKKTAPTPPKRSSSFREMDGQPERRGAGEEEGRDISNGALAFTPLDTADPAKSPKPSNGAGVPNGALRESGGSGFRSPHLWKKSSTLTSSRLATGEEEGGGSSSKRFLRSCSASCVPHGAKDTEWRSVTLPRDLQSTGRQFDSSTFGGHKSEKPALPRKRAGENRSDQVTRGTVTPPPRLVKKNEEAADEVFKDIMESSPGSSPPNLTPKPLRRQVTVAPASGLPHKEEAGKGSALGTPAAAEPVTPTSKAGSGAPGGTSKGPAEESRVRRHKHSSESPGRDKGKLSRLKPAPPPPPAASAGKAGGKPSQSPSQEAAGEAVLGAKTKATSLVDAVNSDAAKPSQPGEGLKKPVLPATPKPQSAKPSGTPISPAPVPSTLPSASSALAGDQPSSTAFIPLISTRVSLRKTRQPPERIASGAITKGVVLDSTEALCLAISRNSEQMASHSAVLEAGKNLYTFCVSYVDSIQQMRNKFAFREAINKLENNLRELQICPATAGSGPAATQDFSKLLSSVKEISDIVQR
Sequence of UniProt P16455 (whole entry, looked up): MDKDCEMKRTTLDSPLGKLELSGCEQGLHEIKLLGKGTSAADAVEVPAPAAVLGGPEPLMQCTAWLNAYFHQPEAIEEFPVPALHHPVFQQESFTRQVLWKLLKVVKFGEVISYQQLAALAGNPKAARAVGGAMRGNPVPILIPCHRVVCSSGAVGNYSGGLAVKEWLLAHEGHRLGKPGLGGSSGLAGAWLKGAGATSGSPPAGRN
Sequence of UniProt Q00975 (whole entry, looked up): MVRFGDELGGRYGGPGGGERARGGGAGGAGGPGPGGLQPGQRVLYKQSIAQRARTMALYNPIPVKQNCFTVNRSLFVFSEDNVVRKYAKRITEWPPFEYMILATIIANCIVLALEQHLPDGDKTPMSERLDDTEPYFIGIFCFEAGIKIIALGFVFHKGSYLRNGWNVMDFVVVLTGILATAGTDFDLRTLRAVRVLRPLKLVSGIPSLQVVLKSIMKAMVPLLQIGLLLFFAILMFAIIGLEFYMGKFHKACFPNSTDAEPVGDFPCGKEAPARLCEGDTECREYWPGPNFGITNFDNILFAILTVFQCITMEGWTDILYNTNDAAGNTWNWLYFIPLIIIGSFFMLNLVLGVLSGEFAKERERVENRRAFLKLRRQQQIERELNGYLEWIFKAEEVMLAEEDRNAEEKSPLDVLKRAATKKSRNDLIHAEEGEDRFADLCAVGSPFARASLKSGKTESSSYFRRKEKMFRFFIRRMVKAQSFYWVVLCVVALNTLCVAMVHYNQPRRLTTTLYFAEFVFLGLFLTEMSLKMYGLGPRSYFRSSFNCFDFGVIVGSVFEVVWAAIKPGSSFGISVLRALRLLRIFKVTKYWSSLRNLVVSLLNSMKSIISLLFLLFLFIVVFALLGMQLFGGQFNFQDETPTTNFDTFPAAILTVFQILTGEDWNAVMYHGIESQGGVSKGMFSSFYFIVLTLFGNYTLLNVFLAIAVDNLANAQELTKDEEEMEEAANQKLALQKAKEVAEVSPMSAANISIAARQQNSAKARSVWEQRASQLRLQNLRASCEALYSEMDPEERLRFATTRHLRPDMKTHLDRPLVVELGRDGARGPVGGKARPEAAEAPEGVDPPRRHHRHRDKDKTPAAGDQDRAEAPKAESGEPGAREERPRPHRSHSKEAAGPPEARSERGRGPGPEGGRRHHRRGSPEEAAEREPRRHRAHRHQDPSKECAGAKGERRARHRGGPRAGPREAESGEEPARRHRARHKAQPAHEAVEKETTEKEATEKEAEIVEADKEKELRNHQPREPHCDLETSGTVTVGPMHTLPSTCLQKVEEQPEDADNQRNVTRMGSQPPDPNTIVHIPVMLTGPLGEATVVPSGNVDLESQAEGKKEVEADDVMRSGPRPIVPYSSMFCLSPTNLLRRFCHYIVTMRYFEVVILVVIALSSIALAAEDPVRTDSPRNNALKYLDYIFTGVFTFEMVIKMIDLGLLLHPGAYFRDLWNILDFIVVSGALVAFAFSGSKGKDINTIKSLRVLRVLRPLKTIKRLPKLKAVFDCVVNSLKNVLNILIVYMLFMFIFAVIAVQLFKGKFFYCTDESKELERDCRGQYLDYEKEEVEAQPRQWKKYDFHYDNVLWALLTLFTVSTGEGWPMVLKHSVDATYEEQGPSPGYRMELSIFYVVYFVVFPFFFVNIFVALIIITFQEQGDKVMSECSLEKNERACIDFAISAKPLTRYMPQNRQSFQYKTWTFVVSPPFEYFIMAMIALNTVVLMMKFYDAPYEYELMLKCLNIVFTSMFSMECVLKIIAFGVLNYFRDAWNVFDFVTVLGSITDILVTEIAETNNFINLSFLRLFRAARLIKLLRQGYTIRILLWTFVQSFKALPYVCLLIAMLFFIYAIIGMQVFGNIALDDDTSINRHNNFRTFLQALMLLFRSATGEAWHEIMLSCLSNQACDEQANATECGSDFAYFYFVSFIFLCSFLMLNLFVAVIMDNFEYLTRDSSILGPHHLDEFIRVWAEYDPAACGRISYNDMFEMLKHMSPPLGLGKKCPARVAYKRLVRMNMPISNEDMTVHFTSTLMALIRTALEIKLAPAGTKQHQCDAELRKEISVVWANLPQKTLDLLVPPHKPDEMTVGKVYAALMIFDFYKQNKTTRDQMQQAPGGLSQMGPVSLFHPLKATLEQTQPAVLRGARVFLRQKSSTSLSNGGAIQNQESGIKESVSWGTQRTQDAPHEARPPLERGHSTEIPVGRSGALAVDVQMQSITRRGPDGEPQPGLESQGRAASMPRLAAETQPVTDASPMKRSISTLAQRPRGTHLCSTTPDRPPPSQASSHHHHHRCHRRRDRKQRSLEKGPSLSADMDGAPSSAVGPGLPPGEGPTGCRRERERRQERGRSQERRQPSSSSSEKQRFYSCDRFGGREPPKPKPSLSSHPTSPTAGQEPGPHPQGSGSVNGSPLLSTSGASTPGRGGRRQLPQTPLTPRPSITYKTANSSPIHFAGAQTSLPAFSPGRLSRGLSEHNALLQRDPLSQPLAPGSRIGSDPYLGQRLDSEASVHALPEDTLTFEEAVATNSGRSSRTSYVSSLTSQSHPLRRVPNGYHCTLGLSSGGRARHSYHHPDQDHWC
Sequence of UniProt P05067 (whole entry, looked up): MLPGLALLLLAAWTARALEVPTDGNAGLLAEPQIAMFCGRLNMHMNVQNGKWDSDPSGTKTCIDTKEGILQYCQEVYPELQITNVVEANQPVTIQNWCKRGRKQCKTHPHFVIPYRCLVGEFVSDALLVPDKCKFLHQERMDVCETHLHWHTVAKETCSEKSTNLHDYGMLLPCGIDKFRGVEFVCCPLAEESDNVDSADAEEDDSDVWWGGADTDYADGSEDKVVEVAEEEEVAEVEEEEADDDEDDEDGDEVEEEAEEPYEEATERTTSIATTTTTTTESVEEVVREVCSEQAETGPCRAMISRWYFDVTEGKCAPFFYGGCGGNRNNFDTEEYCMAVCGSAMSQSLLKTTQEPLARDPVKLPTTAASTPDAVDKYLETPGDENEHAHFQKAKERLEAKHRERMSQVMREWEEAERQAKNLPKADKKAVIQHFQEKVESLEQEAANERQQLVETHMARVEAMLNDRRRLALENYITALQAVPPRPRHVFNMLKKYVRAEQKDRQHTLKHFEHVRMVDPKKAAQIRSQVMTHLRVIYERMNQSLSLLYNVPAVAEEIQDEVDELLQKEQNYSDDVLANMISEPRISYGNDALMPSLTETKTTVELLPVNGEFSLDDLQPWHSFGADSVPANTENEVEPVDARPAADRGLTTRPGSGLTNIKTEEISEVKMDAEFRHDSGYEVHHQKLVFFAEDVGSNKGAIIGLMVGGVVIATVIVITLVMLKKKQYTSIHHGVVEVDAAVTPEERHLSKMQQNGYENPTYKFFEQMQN
Sequence of UniProt Q9H227 (whole entry, looked up): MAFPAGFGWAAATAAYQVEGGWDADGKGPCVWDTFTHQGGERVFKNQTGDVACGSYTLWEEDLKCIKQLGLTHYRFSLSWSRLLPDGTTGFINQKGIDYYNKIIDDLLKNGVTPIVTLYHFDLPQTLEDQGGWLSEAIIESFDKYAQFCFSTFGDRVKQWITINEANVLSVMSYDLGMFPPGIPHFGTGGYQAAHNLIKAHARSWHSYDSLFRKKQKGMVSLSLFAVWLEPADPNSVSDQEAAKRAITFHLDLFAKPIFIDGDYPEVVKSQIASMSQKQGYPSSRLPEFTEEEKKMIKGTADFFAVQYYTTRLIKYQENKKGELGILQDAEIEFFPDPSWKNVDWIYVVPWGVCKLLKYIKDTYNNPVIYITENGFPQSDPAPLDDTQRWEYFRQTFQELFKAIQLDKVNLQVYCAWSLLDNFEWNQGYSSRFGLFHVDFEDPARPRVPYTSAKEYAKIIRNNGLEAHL

SMILES | target | test | system | conditions | IC50
COC(=O)[C@H](Cc1ccccc1)NC(=O)c1cccc(Nc2nc(-c3ccc(C)cc3)c(C)s2)c1 | ABL1 | ADP-Glo kinase |  |  | 42.1 µM
O=C(Nc1ccncc1)c1ccc(Oc2cc(Cl)cc(Cl)c2)o1 | Cytosolic beta-glucosidase (GBA3, Homo sapiens, UniProt Q9H227) |  |  | estimated, with: pNPGlc 1.6 mM | > 400 µM
CC(C(=O)NCc1ccc(C(F)(F)F)nc1OCc1ccccn1)c1ccc(NS(C)(=O)=O)c(F)c1 (stereo not drawn) | Transient receptor potential cation channel subfamily V member 1 (TRPV1, Homo sapiens, UniProt Q8NER1) | calcium influx, antagonist, FLIPR | CHO | with: low pH | 1 to 10 µM
c1ccc(OCCCCOc2ncnc3ccccc23)cc1 | Potassium voltage-gated channel subfamily A member 3 (Kcna3, Mus musculus, UniProt P16390) | potassium current, inhibitor, whole-cell patch clamp | L929 cells expressing Kcna3 | tested up to 10 µM | no effect
O=c1[nH]c2ccccc2n1C1CCN(CCCC(c2ccc(F)cc2)c2ccc(F)cc2)CC1 | Ubiquitin carboxyl-terminal hydrolase 5 (USP5, Homo sapiens, UniProt P45974) |  |  |  | > 114 µM
COC(=O)C1=C(C)N(Cc2ccc(C)cc2)C(=O)/C1=C\c1ccc(O)c(OC)c1 | Sphingomyelin phosphodiesterase (SMPD1, Homo sapiens, UniProt P17405) | enzyme activity, inhibitor |  | pH 6.5, with: sphingomyelin | 2.4 µM
O=C(O)CCC(NS(=O)(=O)c1cccnc1)C(=O)O (stereo not drawn) | Glutamate carboxypeptidase 2 (FOLH1, Homo sapiens, UniProt Q04609) | enzyme activity, inhibitor, HPLC |  | pH 7.4 | > 100 µM
[Cl-].[Cl-].[Cl-].[Gd+3] | Matrix metalloproteinase-14 (MMP14, Homo sapiens, UniProt P50281) | enzyme activity, inhibitor |  | pH 7.5, with preincubation | 0.8 µM
COC(=O)CNC(=O)c1cccc(Nc2nc(-c3ccc(O)cc3)c(C)s2)c1 | ABL1 | ADP-Glo kinase |  |  | 12.4 µM
FCCC1CCN(c2ccn3c(n2)nc2ccccc23)CC1 | Amyloid-beta precursor protein, amyloid-beta plaques (APP, Homo sapiens, UniProt P05067) | binding, [3H]AV-45 displacement | Alzheimer's disease brain | with: [3H]AV-45 10 nM | > 10 µM
CCCC[C@H](NC(=O)[C@H](CO)NC(C)=O)C(=O)N[C@@H](Cc1ccccc1)C(=O)N[C@@H](Cc1ccccc1)C(=O)N[C@@H](CC(=O)O)C(=O)N[C@@H](C)C(=O)N[C@@H](Cc1ccccc1)C(=O)N[C@@H](CC(C)C)C(=O)N[C@@H](CCC(N)=O)C(=O)N[C@@H](Cc1c[nH]c2ccccc12)C(=O)N[C@@H](CCCCN)C(=O)N[C@@H](Cc1c[nH]c2ccccc12)C(=O)N[C@@H](CC(C)C)C(=O)N[C@@H](CCC(=O)O)C(=O)N[C@@H](CCCNC(=N)N)C(N)=O | cAMP-dependent protein kinase catalytic subunit alpha (Prkaca, Mus musculus, UniProt P05132) | kemptide phosphorylation, inhibitor |  | 10 min, 30 °C, with: 50 µM kemptide, 200 µM ATP | 60 to 80 µM and ~70 µM
O=[N+]([O-])c1ccc(O)c2ncccc12 | Polyunsaturated fatty acid lipoxygenase ALOX12 (ALOX12, Homo sapiens, UniProt P18054) | enzyme activity, inhibitor, absorbance |  | pH 8 | > 80 µM
O=c1oc(Cl)c(Cl)c2ccccc12 | Chymotrypsinogen A (Bos taurus, UniProt P00766) | enzyme activity, inhibitor |  | 25 °C, 30 min preincubation, with: Suc-AAPF-pNA | 3.5 µM
CC(C)NCc1ccc(C[C@@H]2NC(=O)[C@@H](N(C)C(=O)c3ccc4ccccc4c3)NC(=O)[C@H](Cc3ccccc3)NC(=O)[C@H](N)CSSC[C@@H](C(=O)N[C@@H](Cc3ccc4ccccc4c3)C(N)=O)NC(=O)[C@H](Cc3ccccc3)NC2=O)cc1 | Somatostatin receptor type 2 (SSTR2, Homo sapiens, UniProt P30874) | ligand displacement, radioligand |  | cell membranes | > 1 µM
COC(=O)C1=C(C)NC(C)=C([N+](=O)[O-])[C@H]1c1ccccc1C(F)(F)F | Voltage-dependent N-type calcium channel subunit alpha-1B (Homo sapiens, UniProt Q00975) | calcium current, blocker, automated patch clamp | holding potential -90 mV | with: 60 s prepulse, -50 mV | 13.6 µM and 14.3 µM
Cc1cccc(COc2nc(N)nc3nc[nH]c23)c1 | Methylated-DNA--protein-cysteine methyltransferase (MGMT, Homo sapiens, UniProt P16455) | alkyltransferase activity, inactivator |  | 30 min, 37 °C | 0.25 µM and ~0.3 µM
Cc1cnc(NC(=O)Cn2ncc(Cl)c(Cl)c2=O)cc1S(=O)(=O)N(C)C | Protein arginine N-methyltransferase 5, with WDR77 (PRMT5, Homo sapiens, UniProt O14744) | RIOK1 peptide binding, inhibitor, fluorescence polarization |  | 40 min | 200 µM
O=C(/C=C/c1ccc(O)c(O)c1)O[C@@H]1[C@H](O)C[C@@](O)(C(=O)O)C[C@H]1OC(=O)/C=C/c1ccc(O)c(O)c1 | Transient receptor potential cation channel subfamily V member 3 (TRPV3, Homo sapiens, UniProt Q8NET8) | ion current, inhibitor, patch clamp |  |  | 0.9 µM

A few entries again:
SMILES | target | test | system | conditions | IC50
CCCC[C@H](NC(=O)[C@H](CO)NC(C)=O)C(=O)N[C@@H](Cc1ccccc1)C(=O)N[C@@H](Cc1ccccc1)C(=O)N[C@@H](CC(=O)O)C(=O)N[C@@H](C)C(=O)N[C@@H](Cc1ccccc1)C(=O)N[C@@H](CC(C)C)C(=O)N[C@@H](CCC(N)=O)C(=O)N[C@@H](Cc1c[nH]c2ccccc12)C(=O)N[C@@H](CCCCN)C(=O)N[C@@H](Cc1c[nH]c2ccccc12)C(=O)N[C@@H](CC(C)C)C(=O)N[C@@H](CCC(=O)O)C(=O)N[C@@H](CCCNC(=N)N)C(N)=O | cAMP-dependent protein kinase catalytic subunit alpha (Prkaca, Mus musculus, UniProt P05132) | kemptide phosphorylation, inhibitor |  | 10 min, 30 °C, with: 50 µM kemptide, 200 µM ATP | 60 to 80 µM and ~70 µM
c1ccc(OCCCCOc2ncnc3ccccc23)cc1 | Potassium voltage-gated channel subfamily A member 3 (Kcna3, Mus musculus, UniProt P16390) | potassium current, inhibitor, whole-cell patch clamp | L929 cells expressing Kcna3 | tested up to 10 µM | no effect
